Measured values collected from several papers.
Protocols differ between the studies behind these lines. “And” joins repeats or separate records; there may be more than shown. Numbers after ± are the reported error.

SMILES | test | system | conditions | how to read | quantity | value
COC(=O)[C@H]1[C@@H](c2ccc(Cl)c(Cl)c2)C[C@@H]2CC[C@H]1N2CCCc1ccc2cc3ccccc3cc2c1 | fluorometric titration |  | 1 µM, 10% DMSO |  | pKa | 6.2
CC(C)=CCC/C(C)=C\CCn1cc(CC(C)(P(=O)(O)O)P(=O)(O)O)nn1 |  | mouse CD-1 | intravenous, 0.3 mg/kg, 24 h | baseline: dose | biliary excretion | 0.023%
CC(=O)c1c(C)c2cnc(Nc3ccc(N4CCNCC4)cn3)nc2n(C2CCCC2)c1=O |  | C57BL/6 mice, blood | 25 mg/kg, P25, dosed P10 to P24 |  | creatinine | 0.39 ± 0.05 mg/dL
CC(C)[C@@H]1NC(=O)CNC(=O)[C@H](CC(N)=O)NC(=O)[C@H](CCCNC(=N)N)NC(=O)[C@H](Cc2ccc(O)cc2)NC(=O)[C@H](C(C)C)NC(=O)[C@@H](NC(=O)[C@@H](NC(=O)[C@H](CC(N)=O)NC(=O)[C@H](Cc2c[nH]c3ccccc23)NC(=O)[C@H](C)NC(=O)[C@H](Cc2ccccc2)NC(=O)CNC(=O)[C@H](CCCCN)NC(=O)[C@H](Cc2ccccc2)NC(=O)[C@H](Cc2ccccc2)NC(=O)[C@H](CCCCN)NC(=O)OCC2c3ccccc3-c3ccccc32)C(C)C)CSSC[C@@H](C(=O)N[C@@H](Cc2c[nH]cn2)C(=O)N[C@@H](CCCNC(=N)N)C(=O)N[C@@H](CCCNC(=N)N)C(=O)N[C@@H](C)C(=O)N[C@@H](CC(N)=O)C(N)=O)NC(=O)[C@H](C(C)C)NC(=O)[C@H](CCCNC(=N)N)NC1=O |  | ICR mouse | ip, 5 mg/kg | direction not given | group interaction score | 0
O=C1NC2(CC2)COc2ncc(F)cc2[C@H]2COCCN2c2ccn3ncc1c3n2 |  | Sprague-Dawley rats, male, blood | oral, 20 mg/kg/day, end of treatment, 4-week subacute toxicity |  | fibrinogen | 2.48 ± 0.45 g/L
COc1nc(CC=C(C)CC=CC(C)=CC(C)C(OC2OC(CO)C(O)C(O)C2O)C(C)=CCO)c(C)c(O)c1OC (centres unmarked) |  | male C57BL/6 mouse, plasma | intravenous, 2 mg/kg |  | clearance | 940 mL/min/kg
CCCCCC(=O)N[C@@H](CCCNC(=N)N)C(=O)N[C@@H](Cc1c[nH]c2ccccc12)C(=O)N[C@@H](CCCCN)C(=O)N[C@H](C(=O)N[C@@H](Cc1ccccc1)C(=O)N[C@@H](CCCCN)C(=O)N[C@@H](CCCCN)C(=O)N[C@H](C(=O)N[C@@H](CCC(=O)O)C(=O)N[C@@H](CCCCN)C(=O)N[C@H](C(=O)NCC(=O)N[C@@H](CCC(N)=O)C(=O)N[C@@H](CC(N)=O)C(=O)N[C@H](C(=O)N[C@@H](CCCNC(=N)N)C(=O)N[C@@H](CC(=O)O)C(=O)NCC(=O)N[C@H](C(=O)N[C@H](C(=O)N[C@@H](CCCCN)C(=O)N[C@@H](C)C(=O)NCC(=O)N1CCC[C@H]1C(=O)N[C@@H](C)C(=O)N[C@H](C(=O)N[C@@H](C)C(=O)N[C@H](C(=O)N[C@H](C(=O)NCC(=O)N[C@@H](CCC(N)=O)C(=O)N[C@@H](C)C(=O)N[C@@H](C)C(=O)N[C@H](C(=O)N[C@H](C(N)=O)[C@@H](C)CC)[C@@H](C)O)C(C)C)C(C)C)C(C)C)C(C)C)[C@@H](C)CC)[C@@H](C)CC)C(C)C)[C@@H](C)CC)[C@@H](C)CC | CD spectroscopy | 50% TFE in water | room temperature |  | helical content | 37.9%
COc1cnc2cccc(N3CCc4c(cc(Cn5ccnc5)cc4-c4cn(C)nc4C(F)(F)F)C3=O)c2c1 |  | CD-1 mouse | intraperitoneal, 50 mg/kg once daily, day 2, dose-escalation tolerability | baseline: day 1 | body weight change | 2%
CSCC[C@H](NC(=O)CNC(=O)[C@H](CCCCN)NC(=O)[C@H](CC(C)C)NC(=O)[C@@H]1CCCN1C(=O)[C@H](CO)NC(=O)[C@H](Cc1c[nH]cn1)NC(=O)[C@H](Cc1c[nH]c2ccccc12)NC(=O)[C@H](CCCNC(=N)N)NC(=O)[C@H](CC(C)C)NC(=O)[C@H](CCCNC(=N)N)NC(=O)[C@H](Cc1c[nH]c2ccccc12)NC(=O)[C@H](CS)NC(=O)CCCCCNC(=O)CN1CCN(CC(=O)O)CCN(CC(=O)O)CCN(CC(=O)O)CC1)C(=O)O [copper-64 labelled] |  | BALB/c nude mouse, Huh-7 tumour, tumour and blood | intravenous, 1.85 MBq, 6 h, ex vivo biodistribution | baseline: tumour over blood | tumour-to-blood ratio | 5.39
CC[C@H](C)[C@H](NC(=O)[C@H](CCCCN)NC(=O)CNC(=O)[C@H](CC(C)C)NC(=O)[C@H](Cc1ccccc1)NC(=O)[C@H](CCCCN)NC(=O)[C@H](CO)NC(=O)[C@H](Cc1ccccc1)NC(=O)[C@H](Cc1c[nH]c2ccccc12)NC(=O)[C@H](CCC(N)=O)NC(=O)[C@@H](NC(=O)[C@H](Cc1ccccc1)NC(=O)CCCCCNC(=O)CN1CCN(CC(=O)O)CCN(CC(=O)O)CCN(CC(=O)O)CC1)C(C)C)C(=O)N[C@@H](CCC(=O)O)C(=O)N1CCC[C@H]1C(=O)N[C@@H](CC(=O)O)C(=O)N[C@H](C(=O)N[C@@H](CO)C(=O)N[C@@H](CCC(N)=O)C(=O)N[C@H](C(=O)N[C@@H](CCC(N)=O)C(=O)N[C@@H](CC(=O)O)C(=O)N1CCC[C@H]1C(=O)N[C@@H](CC(N)=O)C(=O)N[C@@H](CC(=O)O)C(=O)N[C@@H](CCC(N)=O)C(=O)N[C@@H](Cc1ccc(O)cc1)C(=O)N[C@@H](CCC(=O)O)C(=O)N1CCC[C@H]1C(=O)N[C@@H](Cc1ccccc1)C(=O)O)C(C)C)C(C)C [copper-64 labelled] | dynamic PET | mouse both sexes, CT26 tumour, checkpoint inhibitor-treated, tumour | intravenous, 100 µCi/mouse, 870 s |  | SUVmean | 3.87 SUV
CN1Cc2cc(Cl)ccc2-n2c(nnc2C2CCN(c3cccc(F)n3)CC2)C1 |  | Sprague-Dawley rat male, pituitary | intravenous, 0.03 mg/kg |  | AUC | 18.9 ng·h/mL
N=C(N)NCCC[C@@H](NC(=O)[C@H](N)Cc1c[nH]c2ccccc12)C(=O)N[C@H](CCCCN)C(=O)N[C@H](Cc1c[nH]c2ccccc12)C(=O)N[C@H](CCCNC(=N)N)C(=O)N[C@H](CCCCN)C(=O)N[C@H](Cc1c[nH]c2ccccc12)C(=O)N[C@H](CCCNC(=N)N)C(=O)N[C@H](CCCCN)C(=O)N[C@H](Cc1c[nH]c2ccccc12)C(=O)N[C@H](CCCNC(=N)N)C(=O)N[C@H](CCCCN)C(N)=O |  | mouse | intraperitoneal, 20 mg/kg single dose, day 2 |  | survival | 100%
CSCC[C@H](N)C(=O)N[C@@H](C)C(=O)N[C@@H](CCCNC(=N)N)C(=O)N[C@@H](CCCNC(=N)N)C(=O)N[C@@H](CC(=O)O)C(=O)N[C@@H](CCCCN)C(=O)N[C@H](C(=O)N[C@@H](CC(=O)O)C(=O)N[C@@H](Cc1ccccc1)C(=O)N[C@@H](C)C(=O)N[C@@H](CCCNC(=N)N)C(=O)N[C@@H](CCCNC(=N)N)C(=O)N[C@@H](CCCNC(=N)N)C(=O)N[C@@H](CCCNC(=N)N)C(=O)NCCCCCC(=O)NCCCCC(NC(=O)CCCCCNC(=O)[C@H](CCCNC(=N)N)NC(=O)[C@H](CCCNC(=N)N)NC(=O)[C@H](CCCNC(=N)N)NC(=O)[C@H](CCCNC(=N)N)NC(=O)[C@H](C)NC(=O)[C@H](Cc1ccccc1)NC(=O)[C@H](CC(=O)O)NC(=O)[C@@H](NC(=O)[C@H](CCCCN)NC(=O)[C@H](CC(=O)O)NC(=O)[C@H](CCCNC(=N)N)NC(=O)[C@H](CCCNC(=N)N)NC(=O)[C@H](C)NC(=O)[C@@H](N)CCSC)[C@@H](C)O)C(=O)NCCCCC(NC(=O)C(CCCCNC(=O)CCCCCNC(=O)[C@H](CCCNC(=N)N)NC(=O)[C@H](CCCNC(=N)N)NC(=O)[C@H](CCCNC(=N)N)NC(=O)[C@H](CCCNC(=N)N)NC(=O)[C@H](C)NC(=O)[C@H](Cc1ccccc1)NC(=O)[C@H](CC(=O)O)NC(=O)[C@@H](NC(=O)[C@H](CCCCN)NC(=O)[C@H](CC(=O)O)NC(=O)[C@H](CCCNC(=N)N)NC(=O)[C@H](CCCNC(=N)N)NC(=O)[C@H](C)NC(=O)[C@@H](N)CCSC)[C@@H](C)O)NC(=O)CCCCCNC(=O)[C@H](CCCNC(=N)N)NC(=O)[C@H](CCCNC(=N)N)NC(=O)[C@H](CCCNC(=N)N)NC(=O)[C@H](CCCNC(=N)N)NC(=O)[C@H](C)NC(=O)[C@H](Cc1ccccc1)NC(=O)[C@H](CC(=O)O)NC(=O)[C@@H](NC(=O)[C@H](CCCCN)NC(=O)[C@H](CC(=O)O)NC(=O)[C@H](CCCNC(=N)N)NC(=O)[C@H](CCCNC(=N)N)NC(=O)[C@H](C)NC(=O)[C@@H](N)CCSC)[C@@H](C)O)C(N)=O)[C@@H](C)O (some centres unmarked) |  | C57BL/6 mouse female, brain | dose not given, 3 h | baseline: total | tissue distribution | 0.33% and 0.3% and 0.2%
CC(C)Oc1c(NC(=O)c2ccc(NC(=O)[C@H](CC(N)=O)NC(=O)c3ccc(/N=N/c4ccccc4)cc3)cc2)ccc(C(=O)Nc2ccc(C(=O)O)cc2)c1O | absorbance kinetics |  | 30 °C, photostationary to ground state |  | thermal relaxation half-life | 44.5 h
CC[C@H](C)[C@H](NC(=O)[C@H](C)NC(=O)[C@H](C)NC(=O)[C@H](CCC(N)=O)NC(=O)CNC(=O)[C@H](CC(C)C)NC(=O)[C@H](Cc1c[nH]cn1)NC(=O)[C@H](CCCCN)NC(=O)[C@H](C)NC(=O)CNC(=O)[C@H](CCCCN)NC(=O)[C@H](CCCNC(=N)N)NC(=O)[C@H](CC(C)C)NC(=O)[C@H](Cc1c[nH]c2ccccc12)NC(=O)[C@H](CCCCN)NC(=O)[C@H](CCCCN)NC(=O)[C@H](Cc1c[nH]c2ccccc12)NC(=O)CN)C(=O)N[C@@H](CCCCN)C(N)=O |  | zebrafish embryos 28 hpf, E3 medium | 24 h |  | chronic toxic concentration | 25 µM
C1N2CN3CN1CP(C2)C3.COc1ccc(C([O-])=CC(=O)c2ccc(C(C)(C)C)cc2)cc1.Cc1ccc(C(C)C)cc1.[Ru+2] |  | zebrafish larvae | 10 µM, 96 h, dark | baseline: normal | viability | 100%
COc1ccc(CNc2ccc3c(c2)S(=O)(=O)C=C3)cc1 | flow cytometry | male C57BL/6 mice, spleen | i.p., 10 mg/kg, 8 days | baseline: CD45+ cells | CD8+ cells | 10.7%

A few entries again:
SMILES | test | system | conditions | how to read | quantity | value
CC[C@H](C)[C@H](NC(=O)[C@H](CCCCN)NC(=O)CNC(=O)[C@H](CC(C)C)NC(=O)[C@H](Cc1ccccc1)NC(=O)[C@H](CCCCN)NC(=O)[C@H](CO)NC(=O)[C@H](Cc1ccccc1)NC(=O)[C@H](Cc1c[nH]c2ccccc12)NC(=O)[C@H](CCC(N)=O)NC(=O)[C@@H](NC(=O)[C@H](Cc1ccccc1)NC(=O)CCCCCNC(=O)CN1CCN(CC(=O)O)CCN(CC(=O)O)CCN(CC(=O)O)CC1)C(C)C)C(=O)N[C@@H](CCC(=O)O)C(=O)N1CCC[C@H]1C(=O)N[C@@H](CC(=O)O)C(=O)N[C@H](C(=O)N[C@@H](CO)C(=O)N[C@@H](CCC(N)=O)C(=O)N[C@H](C(=O)N[C@@H](CCC(N)=O)C(=O)N[C@@H](CC(=O)O)C(=O)N1CCC[C@H]1C(=O)N[C@@H](CC(N)=O)C(=O)N[C@@H](CC(=O)O)C(=O)N[C@@H](CCC(N)=O)C(=O)N[C@@H](Cc1ccc(O)cc1)C(=O)N[C@@H](CCC(=O)O)C(=O)N1CCC[C@H]1C(=O)N[C@@H](Cc1ccccc1)C(=O)O)C(C)C)C(C)C [copper-64 labelled] | dynamic PET | mouse both sexes, CT26 tumour, checkpoint inhibitor-treated, tumour | intravenous, 100 µCi/mouse, 870 s |  | SUVmean | 3.87 SUV
